Measured values collected from several papers.
Parts stem from different laboratories: compare values within a part only. Positions count from the first letter of the parent shown.

Set 1
Target: Interferon regulatory factor 5, full length, phosphomimetic (IRF5, Homo sapiens, UniProt Q13568-2, residues 1-514, S451D/S453D/S456D/S462D)
Method: protein-binding microarray
Form: double-stranded DNA, one strand shown
Matrix: in vitro
Tested at: 940 nM top
Notes: 60-bp whole probe
With: salmon DNA 0.4 mg/ml
Reference: random background probes
Reading: higher = stronger binding
Endpoint: fitted relative affinity
Constant ends, left off below: GCCTAGCAC … GTCTTGATTCGCTTGACGCTGCTG
TTAGATATCGGGTAACGATTAGTGCTA: 0.299 z-score
CAGGTTTCTGATGGGCCTAGGTGCTAG: 3.16 z-score
AACGATTTCGGGACTGGAGACGTGCTA: 0.0644 z-score
TCAATCTTATGATATATAACTGTGCTA: 0.486 z-score
TCATCTTTATGCACTCTTACTGTGCTA: 0.94 z-score
TCATGTTTCTTCTGCTGACTGTGCTAG: 1.12 z-score
GACGAACTGAGCCTCGAGACGTGCTAG: -0.483 z-score
TTAGAACTGAATTTCGATTAGTGCTAG: 0.522 z-score
GGCGGTCTCGGTTTCGGGACGTGCTAG: 6.75 z-score
GACGGTTTCGCGACTGGGGACGTGCTA: 2.55 z-score
GACGGACTGCTTGTCCTGACGTGCTAG: -1.04 z-score
TTAGAACTGGGGAGTGGATTAGTGCTA: 0.0774 z-score
TGTTTCCTCTTTCTTTGCTTGTGCTAG: 2.29 z-score
GACGGTTCCGTTTTCCTGACGTGCTAG: 1.71 z-score
TCTCTGCTCCTTCTGACATCGTGCTAG: 3.34 z-score
TCACCTTTATGTACTCTCACTGTGCTA: 1.75 z-score
GACGGACTGGACACGGGGGACGTGCTA: -0.137 z-score

Set 2
Target: ABI1, truncated, D143A, DHFR fusion (Arabidopsis thaliana)
Method: DHFR PCA, deep sequencing
Matrix: yeast
Notes: methotrexate growth selection, single substitutions
With: (+)-ABA 58 µM
Reference: wild-type fitted maximum
Reading: higher = stronger binding
Endpoint: relative binding score
Starting sequence: PYL1, truncated, DHFR fusion (Arabidopsis thaliana); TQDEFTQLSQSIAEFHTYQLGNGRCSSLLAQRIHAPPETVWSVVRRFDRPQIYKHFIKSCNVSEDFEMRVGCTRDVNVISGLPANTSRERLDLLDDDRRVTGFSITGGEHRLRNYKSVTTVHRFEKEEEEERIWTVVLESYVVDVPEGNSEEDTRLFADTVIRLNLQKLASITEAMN; partner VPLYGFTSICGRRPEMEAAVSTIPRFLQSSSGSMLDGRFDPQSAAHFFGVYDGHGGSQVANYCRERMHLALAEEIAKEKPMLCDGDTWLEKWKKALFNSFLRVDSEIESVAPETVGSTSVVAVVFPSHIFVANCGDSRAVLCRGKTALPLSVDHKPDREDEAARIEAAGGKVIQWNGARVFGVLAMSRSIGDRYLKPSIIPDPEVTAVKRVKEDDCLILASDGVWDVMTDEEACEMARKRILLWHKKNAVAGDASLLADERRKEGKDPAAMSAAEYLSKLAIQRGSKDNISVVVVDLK
D159M: 12.9%
Q7M: 101%
R69M: 84.2%
R155D: -0.445%
R98K: 92.1%
H34C: 97.7%
R46I: 25.2%
L82C: 52.9%
S42W: 49.5%
E152V: 76.5%
I162R: 3.34%
Y115I: -0.502%
C60L: 32.7%
T86G: 75.1%
F66S: 78.8%
V121P: 7.71%
V142I: 82.1%

Set 3
Target: Sal-like protein 4, full length isoform B (SALL4, Homo sapiens, UniProt Q9UJQ4-2, residues 1-616)
Method: universal PBM
Form: double-stranded DNA, one strand shown
Matrix: in vitro
Tested at: not given
Notes: 8-mer, flanks averaged, mean of replicates
Reading: higher = stronger binding
Endpoint: E-score
AATTTTAA: 0.384
CATCTCGA: 0.0447
ATCGTTCA: 0.127
CAGGAGGC: -0.216
ACGATCGC: -0.0994
GTACAGAC: 0.158
CCACTCGG: -0.212
GGGTGGCA: -0.309
ACTCTGAC: -0.0616
TAGCGTGA: 0.0391
CGACATAC: 0.00692
AAGAGATT: 0.0897
CCATATGA: 0.137
CCGATGCC: -0.181
CTCCTAAA: 0.0339
CCAGCTAA: -0.0931
CAGCTCCC: -0.308

Set 4
Target: RING finger protein unkempt homolog, zinc fingers 1-6, GST-SBP tag (UNK, Homo sapiens, UniProt Q9C0B0, residues 30-357)
Sequence of UniProt Q9C0B0 (30-357, looked up): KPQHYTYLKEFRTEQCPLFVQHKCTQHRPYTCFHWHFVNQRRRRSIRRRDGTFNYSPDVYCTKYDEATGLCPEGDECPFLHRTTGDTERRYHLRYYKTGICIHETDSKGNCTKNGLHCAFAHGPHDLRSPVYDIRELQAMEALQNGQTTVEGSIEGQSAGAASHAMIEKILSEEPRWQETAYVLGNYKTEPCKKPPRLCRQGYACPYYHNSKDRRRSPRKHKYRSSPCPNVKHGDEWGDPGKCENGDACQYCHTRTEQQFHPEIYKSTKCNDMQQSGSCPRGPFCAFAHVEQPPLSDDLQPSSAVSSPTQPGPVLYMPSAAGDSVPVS
Method: RNA Bind-n-Seq
Form: RNA
Matrix: in vitro
Tested at: not given
Notes: RNA with constant flanks, ends assumed
Reference: input RNA pool
Reading: higher = stronger binding
Endpoint: bound/input enrichment
Constant ends, left off below: GGGAGUUCUACAGUCCGACGAUC … CAACAGAGGAUUGAGCAUCA
UUCUCUCGAGUUGAAGAAGACUAUCUCUGGAGGAUAAAACAACUAGGAUCACACUCUCCAGCCGCUCUUCUGAAUACACUGUUCUACUUUAACACUAAGUAUUUUGGCCUGAAAACAGUG: 0.338 ratio
GCACAGAUUCAUCAGUUCAGAGAGGAUUCAUUGGAUAGUGUUCUUUUUCUCAAAAAGAUCGACCGAUGCUGGCAAAACCACUGUAGGCAAAUGAUAAUGAUCAGGAGCAUUUUUUUGUUU: 0.282 ratio
GCCCGGAAAACUGUGAAAAAAAUACUUAGUGACAUUGGGUUGGAAUACUGUAAAGAACAUACCGAAGAUUUUAAACAAUUUGAACCUAAUGACUUUUAUUUGAAAAACACUACAUGGGAG: 0.393 ratio
CCUCUUUUCCAGUCCCAUGUUGAAGAUCUUUACGUAGAAGGGCUUCCUGAAGGGAUUCCUUUCCGAAGGCCGUCGACGUACGGCAUUCCUCGCCUUGAGAGGAUAUUGCUGGCGAAGGAA: 0.13 ratio
CCCUUGCCUCACCUGUAUUGCUGUGGAUGUGUUUUGUGGGUUUUUCAUUCGAUUUUACAAAACCGGGAAAGGCACUUCCAGUUGUAUUUAGUAGGCAGUUGUUGUGAAUCAUUUUUUUCU: 0.165 ratio
GCUGAAGAUGACAGCAAAAUUGAUUCAUGAAGUUUUUUGCCUCCCACGUUGGGAAGUCAUCCGUUGAACUAUUUUCACAUUGGCCCCCCACACAGGCCACUCUCUUCCCUUUCUUGGUGA: 0.245 ratio
GAAGACUUUGGUCCAGAAAAGAAAACCAGUGAUGUUGAAACCAUGAGUUCUCAAUCAGCUCCCGCUUUGGAUGAAAGGAAAUUGGGAGGAGAUGUAUCUCCAACACAAAUAGACGUCAGU: 0.187 ratio
AGAACACAGUUAUGGGUCGCAAGAAGAAGAAGCAGCUGAAGCCGUGGUGCUGGUAUUGUAACCGAGAUUUUGAUGAUGAGAAGAUCCUUAUUCAGCACCAAAAAGCAAAGCAUUUUAAAU: 0.351 ratio
UGCUGUGCGCUCCUGGGAGCUUGACGGAGGCUAAGCCUCCACGGUGCUGUGAGGGGUCCACCGUAUUUUUUUGCUGCCUCUGAGUCCCCAAGGCCUUUAAGCAGAAGUGACAGUAGAUGC: 0.158 ratio
UGUAUGGUAACUAAAGGUGCCAGCAUGUUGACUUUAUUACAAUUUGUAUUACUUCCUCUGCCGUUCCUAAUGGACUCAAUCACAGACUCUGGAUAUUUGCACUUAUGUACUUGAUACUGA: 0.188 ratio
GAUGGGAAAUGUGGACUUUACAAGUAUAUGUUAUAUAUACUUGCAAUGUGACAUGGUUCUGCCGAUCAUUUUAUAAUAAUAAAUAUUUUAAUUUAUCAUAACAUAUAAAAGAAACCUUUG: 4.73 ratio

Set 5
Target: CCNB2, cyclin fold, Cln2 fusion (human)
Method: yeast growth competition, sequencing
Matrix: yeast
Notes: weak parent motif
Reference: not given
Reading: higher = stronger binding
Endpoint: normalised enrichment score
Starting sequence: AKAP12 docking peptide (human); GSPLKKLFTSTGL
K5R: -0.0564
F8L: -0.657
L4A: -0.164
K5A: -0.0923
P3A: 0.758
S10A: 0.408
L7A: -0.381
K5A L7A: -0.336
T9A: 0.0413
F8A: -0.447

Some of these lines once more (set 4):
UUCUCUCGAGUUGAAGAAGACUAUCUCUGGAGGAUAAAACAACUAGGAUCACACUCUCCAGCCGCUCUUCUGAAUACACUGUUCUACUUUAACACUAAGUAUUUUGGCCUGAAAACAGUG: 0.338 ratio
GCACAGAUUCAUCAGUUCAGAGAGGAUUCAUUGGAUAGUGUUCUUUUUCUCAAAAAGAUCGACCGAUGCUGGCAAAACCACUGUAGGCAAAUGAUAAUGAUCAGGAGCAUUUUUUUGUUU: 0.282 ratio
GCCCGGAAAACUGUGAAAAAAAUACUUAGUGACAUUGGGUUGGAAUACUGUAAAGAACAUACCGAAGAUUUUAAACAAUUUGAACCUAAUGACUUUUAUUUGAAAAACACUACAUGGGAG: 0.393 ratio
CCUCUUUUCCAGUCCCAUGUUGAAGAUCUUUACGUAGAAGGGCUUCCUGAAGGGAUUCCUUUCCGAAGGCCGUCGACGUACGGCAUUCCUCGCCUUGAGAGGAUAUUGCUGGCGAAGGAA: 0.13 ratio
CCCUUGCCUCACCUGUAUUGCUGUGGAUGUGUUUUGUGGGUUUUUCAUUCGAUUUUACAAAACCGGGAAAGGCACUUCCAGUUGUAUUUAGUAGGCAGUUGUUGUGAAUCAUUUUUUUCU: 0.165 ratio
GCUGAAGAUGACAGCAAAAUUGAUUCAUGAAGUUUUUUGCCUCCCACGUUGGGAAGUCAUCCGUUGAACUAUUUUCACAUUGGCCCCCCACACAGGCCACUCUCUUCCCUUUCUUGGUGA: 0.245 ratio
GAAGACUUUGGUCCAGAAAAGAAAACCAGUGAUGUUGAAACCAUGAGUUCUCAAUCAGCUCCCGCUUUGGAUGAAAGGAAAUUGGGAGGAGAUGUAUCUCCAACACAAAUAGACGUCAGU: 0.187 ratio
AGAACACAGUUAUGGGUCGCAAGAAGAAGAAGCAGCUGAAGCCGUGGUGCUGGUAUUGUAACCGAGAUUUUGAUGAUGAGAAGAUCCUUAUUCAGCACCAAAAAGCAAAGCAUUUUAAAU: 0.351 ratio
UGCUGUGCGCUCCUGGGAGCUUGACGGAGGCUAAGCCUCCACGGUGCUGUGAGGGGUCCACCGUAUUUUUUUGCUGCCUCUGAGUCCCCAAGGCCUUUAAGCAGAAGUGACAGUAGAUGC: 0.158 ratio
UGUAUGGUAACUAAAGGUGCCAGCAUGUUGACUUUAUUACAAUUUGUAUUACUUCCUCUGCCGUUCCUAAUGGACUCAAUCACAGACUCUGGAUAUUUGCACUUAUGUACUUGAUACUGA: 0.188 ratio
